# Results pooled from the literature.
# Parts stem from different laboratories: compare values within a part only. “And” joins repeats or separate records; there may be more than shown.
# Chain of UniProt O00329 (whole entry, looked up): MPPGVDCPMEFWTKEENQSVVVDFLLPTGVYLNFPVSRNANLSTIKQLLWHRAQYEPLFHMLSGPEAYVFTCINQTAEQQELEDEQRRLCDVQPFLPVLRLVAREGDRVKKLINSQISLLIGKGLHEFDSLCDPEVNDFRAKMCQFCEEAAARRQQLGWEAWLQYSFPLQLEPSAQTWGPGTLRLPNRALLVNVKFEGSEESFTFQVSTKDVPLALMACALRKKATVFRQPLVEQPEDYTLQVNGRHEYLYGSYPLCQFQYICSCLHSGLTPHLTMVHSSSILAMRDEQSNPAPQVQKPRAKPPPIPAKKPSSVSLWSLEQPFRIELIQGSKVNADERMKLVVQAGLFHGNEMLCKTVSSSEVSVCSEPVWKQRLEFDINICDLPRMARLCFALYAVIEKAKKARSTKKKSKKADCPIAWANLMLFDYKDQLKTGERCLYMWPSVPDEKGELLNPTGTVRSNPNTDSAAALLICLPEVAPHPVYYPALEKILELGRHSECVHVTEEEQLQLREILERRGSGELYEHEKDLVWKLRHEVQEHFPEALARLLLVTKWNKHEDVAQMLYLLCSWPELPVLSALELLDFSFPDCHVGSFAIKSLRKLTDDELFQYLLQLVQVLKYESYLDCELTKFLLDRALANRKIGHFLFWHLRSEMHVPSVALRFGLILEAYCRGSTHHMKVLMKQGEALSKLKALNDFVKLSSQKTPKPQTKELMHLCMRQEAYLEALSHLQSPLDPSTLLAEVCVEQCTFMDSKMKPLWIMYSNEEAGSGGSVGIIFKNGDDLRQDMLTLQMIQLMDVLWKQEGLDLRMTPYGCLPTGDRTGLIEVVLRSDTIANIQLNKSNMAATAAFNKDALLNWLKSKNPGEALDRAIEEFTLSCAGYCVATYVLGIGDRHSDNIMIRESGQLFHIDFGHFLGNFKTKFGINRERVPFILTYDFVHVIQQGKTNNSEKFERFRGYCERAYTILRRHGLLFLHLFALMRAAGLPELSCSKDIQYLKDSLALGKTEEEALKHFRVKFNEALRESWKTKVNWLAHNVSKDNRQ
# Chain of UniProt Q2M2I8 (whole entry, looked up): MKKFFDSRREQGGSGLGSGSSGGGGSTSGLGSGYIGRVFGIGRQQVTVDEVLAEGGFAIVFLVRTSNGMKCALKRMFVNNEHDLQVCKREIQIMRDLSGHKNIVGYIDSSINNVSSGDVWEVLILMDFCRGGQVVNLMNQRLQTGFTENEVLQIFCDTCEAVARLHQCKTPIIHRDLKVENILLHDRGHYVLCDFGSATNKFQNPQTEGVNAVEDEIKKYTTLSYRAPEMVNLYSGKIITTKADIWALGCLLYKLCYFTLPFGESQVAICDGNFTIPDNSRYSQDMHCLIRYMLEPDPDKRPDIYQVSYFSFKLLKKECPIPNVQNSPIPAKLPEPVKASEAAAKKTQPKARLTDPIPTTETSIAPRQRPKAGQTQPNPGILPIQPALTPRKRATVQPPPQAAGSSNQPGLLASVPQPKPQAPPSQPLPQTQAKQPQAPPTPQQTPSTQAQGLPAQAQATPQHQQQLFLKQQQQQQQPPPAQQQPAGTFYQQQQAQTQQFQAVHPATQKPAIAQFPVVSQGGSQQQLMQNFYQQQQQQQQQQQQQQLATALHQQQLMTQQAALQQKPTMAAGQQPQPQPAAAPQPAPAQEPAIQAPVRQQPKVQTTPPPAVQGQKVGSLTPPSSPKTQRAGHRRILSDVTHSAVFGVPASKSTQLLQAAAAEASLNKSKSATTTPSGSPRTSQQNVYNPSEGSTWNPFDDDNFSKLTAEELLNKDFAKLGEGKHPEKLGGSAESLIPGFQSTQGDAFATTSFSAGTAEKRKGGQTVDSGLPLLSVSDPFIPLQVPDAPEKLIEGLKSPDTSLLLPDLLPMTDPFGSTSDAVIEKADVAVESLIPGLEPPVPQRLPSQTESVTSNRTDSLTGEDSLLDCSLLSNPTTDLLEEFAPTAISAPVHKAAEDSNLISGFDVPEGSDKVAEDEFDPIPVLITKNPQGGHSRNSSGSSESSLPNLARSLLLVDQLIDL
# Chain of UniProt Q9UQM7 (whole entry, looked up): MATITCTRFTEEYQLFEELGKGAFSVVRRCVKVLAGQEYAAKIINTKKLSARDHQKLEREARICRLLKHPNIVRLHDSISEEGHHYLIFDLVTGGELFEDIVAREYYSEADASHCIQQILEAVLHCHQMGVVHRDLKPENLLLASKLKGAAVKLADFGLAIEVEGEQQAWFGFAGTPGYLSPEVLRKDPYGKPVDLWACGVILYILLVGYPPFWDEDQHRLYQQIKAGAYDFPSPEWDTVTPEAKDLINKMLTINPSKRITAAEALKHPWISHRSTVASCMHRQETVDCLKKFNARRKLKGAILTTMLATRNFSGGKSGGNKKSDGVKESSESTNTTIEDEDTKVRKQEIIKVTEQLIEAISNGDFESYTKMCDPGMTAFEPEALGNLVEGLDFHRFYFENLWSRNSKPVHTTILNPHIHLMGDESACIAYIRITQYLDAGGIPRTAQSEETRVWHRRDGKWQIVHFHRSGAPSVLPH
# Chain of UniProt P27361 (whole entry, looked up): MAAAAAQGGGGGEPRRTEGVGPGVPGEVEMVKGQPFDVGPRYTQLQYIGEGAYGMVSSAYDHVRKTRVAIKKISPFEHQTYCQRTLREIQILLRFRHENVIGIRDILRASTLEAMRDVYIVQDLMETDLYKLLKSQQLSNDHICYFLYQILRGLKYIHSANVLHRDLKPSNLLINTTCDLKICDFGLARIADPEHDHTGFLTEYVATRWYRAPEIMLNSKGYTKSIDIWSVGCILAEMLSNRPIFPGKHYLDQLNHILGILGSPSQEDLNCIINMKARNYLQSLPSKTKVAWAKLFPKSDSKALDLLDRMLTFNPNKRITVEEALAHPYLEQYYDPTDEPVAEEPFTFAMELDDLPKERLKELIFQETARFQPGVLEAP
# Chain of UniProt Q16659 (whole entry, looked up): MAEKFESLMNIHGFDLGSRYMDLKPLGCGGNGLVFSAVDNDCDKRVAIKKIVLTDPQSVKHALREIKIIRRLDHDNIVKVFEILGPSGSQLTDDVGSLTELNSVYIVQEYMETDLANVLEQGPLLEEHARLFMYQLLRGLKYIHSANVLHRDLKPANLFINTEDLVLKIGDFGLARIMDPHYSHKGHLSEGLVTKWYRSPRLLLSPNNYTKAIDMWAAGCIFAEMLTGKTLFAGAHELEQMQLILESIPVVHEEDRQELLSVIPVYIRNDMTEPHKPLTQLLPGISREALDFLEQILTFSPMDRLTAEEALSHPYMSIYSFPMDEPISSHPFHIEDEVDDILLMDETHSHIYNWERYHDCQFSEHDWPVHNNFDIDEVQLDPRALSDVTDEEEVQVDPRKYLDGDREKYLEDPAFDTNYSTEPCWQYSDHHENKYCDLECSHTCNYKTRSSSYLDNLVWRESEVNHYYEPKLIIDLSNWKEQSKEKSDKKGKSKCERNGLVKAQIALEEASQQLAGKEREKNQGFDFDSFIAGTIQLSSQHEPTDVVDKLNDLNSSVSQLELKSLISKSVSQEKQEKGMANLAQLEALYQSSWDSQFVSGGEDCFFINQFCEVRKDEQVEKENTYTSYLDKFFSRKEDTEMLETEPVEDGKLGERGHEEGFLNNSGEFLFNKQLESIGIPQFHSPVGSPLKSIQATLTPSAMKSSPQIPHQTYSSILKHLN

# Set 1
# Target: GTPase KRas, GDP-bound (KRAS, Homo sapiens, UniProt P01116, G12D)
# Action: binder
# Method: multi-cycle SPR
# Notes: binary, without VCB
Compound,dissociation rate constant (kd)
Cc1ncsc1-c1ccc(C2(NC(=O)C3CC(O)CN3C(=O)C(NC(=O)c3ccc(COc4c(-c5c(C)c(F)cc6[nH]ncc56)c(C5CC5)cc5c(N6CC7CC6CN7)nc(OC6CCOCC6)nc45)cc3)C(C)C)CC2)cc1 (centres unmarked),0.00565 s⁻¹ and 0.00799 s⁻¹ and 0.00922 s⁻¹ and 0.00949 s⁻¹ and 0.00936 s⁻¹
Cc1ncsc1-c1ccc(C2(NC(=O)C3CC(O)CN3C(=O)C(NC(=O)c3ccc(COc4c(-c5c(C)c(F)cc6[nH]ncc56)c(C5CC5)cc5c(N6CC7CC6CN7)nc(OC6CCOCC6)nc45)cc3)C(C)(C)C)CC2)cc1 (centres unmarked),0.00841 s⁻¹ and 0.00865 s⁻¹ and 0.00615 s⁻¹ and 0.00592 s⁻¹ and 0.00598 s⁻¹
Cc1ncsc1-c1ccc(C(CO)NC(=O)C2CC(O)CN2C(=O)C(C(C)C)n2cc(-c3ccc(COc4c(-c5c(C)c(F)cc6[nH]ncc56)c(C5CC5)cc5c(N6CC7CC6CN7)nc(OC6CCOCC6)nc45)cc3)nn2)cc1 (centres unmarked),0.00398 s⁻¹ and 0.00355 s⁻¹ and 0.00345 s⁻¹ and 0.00348 s⁻¹ and 0.00262 s⁻¹

# Set 2
# SMILES: CCC1(c2cccc(-c3cn(C)nc3C)c2)C2=C(Nc3n[nH]cc31)C(F)C(C)(C)CC2=O (single isomer, unassigned)
# Concentration: 1 µM
target,test,scale,remaining binding [%]
"PHKG2 (Homo sapiens, UniProt P15735)","binding, competition with immobilised ligand",,100
"ACVR2A (Homo sapiens, UniProt P27037)","kinase binding, KINOMEscan",reference: DMSO control,100
"PIK3CD (Homo sapiens, UniProt O00329)","binding, competition with immobilised ligand",,100
"EGFR (Homo sapiens, UniProt P00533, L858R/T790M)","kinase binding, KINOMEscan",reference: DMSO control,100
"EIF2AK4 (Homo sapiens, UniProt Q9P2K8, S808G)","kinase binding, KINOMEscan",reference: DMSO control,95
"CAMK2A (Homo sapiens, UniProt Q9UQM7)","kinase binding, KINOMEscan",reference: DMSO control,100
"FGFR4 (Homo sapiens, UniProt P22455)","binding, competition with immobilised ligand",,99
"MAPK4 (Homo sapiens, UniProt P31152)","binding, competition with immobilised ligand",,100
"MAPK3 (Homo sapiens, UniProt P27361)","binding, competition with immobilised ligand",,93
"MAP3K4 (Homo sapiens, UniProt Q9Y6R4)","kinase binding, KINOMEscan",reference: DMSO control,100
"CSNK2A2 (Homo sapiens, UniProt P19784)","binding, competition with immobilised ligand",,95
"Ribosomal protein S6 kinase alpha-2, N-terminal kinase domain (RPS6KA2, Homo sapiens, UniProt Q15349)","binding, competition with immobilised ligand",,100
"CDK11B (Homo sapiens, UniProt P21127)","binding, competition with immobilised ligand",,100
"EGFR (Homo sapiens, UniProt P00533)","kinase binding, KINOMEscan",reference: DMSO control,100
"MAPK6 (Homo sapiens, UniProt Q16659)","kinase binding, KINOMEscan",reference: DMSO control,100
"Cyclin-dependent kinase 4, with cyclin D1 (CDK4, Homo sapiens, UniProt P11802)","kinase binding, KINOMEscan",reference: DMSO control,64
"KIT (Homo sapiens, UniProt P10721, V559D)","binding, competition with immobilised ligand",,100
"AAK1 (Homo sapiens, UniProt Q2M2I8)","kinase binding, KINOMEscan",reference: DMSO control,97
"NEK6 (Homo sapiens, UniProt Q9HC98)","kinase binding, KINOMEscan",reference: DMSO control,80

# Set 3
# Target: Membrane-associated tyrosine- and threonine-specific cdc2-inhibitory kinase (PKMYT1, Homo sapiens, UniProt Q99640)
# Observed: binding
# Method: HTRF
# Concentration: 333.33 nM
# Residues (Q99640 1-499): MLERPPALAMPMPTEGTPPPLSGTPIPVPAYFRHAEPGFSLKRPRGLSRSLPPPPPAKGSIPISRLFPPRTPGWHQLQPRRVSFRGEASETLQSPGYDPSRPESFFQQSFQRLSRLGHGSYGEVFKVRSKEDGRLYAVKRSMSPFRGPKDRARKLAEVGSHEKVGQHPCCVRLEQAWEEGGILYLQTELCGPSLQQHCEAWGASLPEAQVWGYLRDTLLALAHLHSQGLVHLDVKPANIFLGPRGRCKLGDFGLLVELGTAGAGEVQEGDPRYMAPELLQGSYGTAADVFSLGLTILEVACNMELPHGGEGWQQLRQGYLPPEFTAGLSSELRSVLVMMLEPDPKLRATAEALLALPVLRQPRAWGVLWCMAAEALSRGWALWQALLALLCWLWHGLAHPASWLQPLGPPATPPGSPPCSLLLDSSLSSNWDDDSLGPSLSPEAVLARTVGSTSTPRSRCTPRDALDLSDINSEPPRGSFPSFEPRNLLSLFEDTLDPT
SMILES,inhibition
Cc1ccc(O)c(C)c1-c1cnc2[nH]c(-c3cnc(N4CCC(CN5CCN(c6c(F)cc(NC7CCC(=O)NC7=O)cc6F)CC5)CC4)nc3)cc2c1C#N (racemic),95.7% and 94%
Cc1ccc(O)c(C)c1-c1cnc2[nH]c(-c3cnc(N4CCC(CN5CCN(c6ccc(NC7CCC(=O)NC7=O)c(F)c6)CC5)CC4)nc3)cc2c1C#N (racemic),101% and 100%
Cc1ccc(O)c(C)c1-c1cnc2[nH]c(-c3cnc(N4CCC(CCN5CCN(c6ccc(N7CCC(=O)NC7=O)cc6F)CC5)CC4)nc3)cc2c1C#N,99.6% and 99.8%
Cc1ccc(O)c(C)c1-c1cnc2[nH]c(-c3cnc(N4CCC(CCN5CCN(c6cc7c(cc6F)c(N6CCC(=O)NC6=O)nn7C)CC5)CC4)nc3)cc2c1C#N,99.3% and 99.4%
Cc1ccc(O)c(C)c1-c1cnc2[nH]c(-c3cnc(N4CCC(CCN5CCN(c6ccc7c(c6)C(=O)N(C6CCC(=O)NC6=O)C7=O)CC5)CC4)nc3)cc2c1C#N (racemic),99.3% and 98.9%

# Set 4
# SMILES: C[C@@H]1CN(c2ccc(-c3cc(C(=O)NCCOCCOCCOCCOCCNC(=O)/C=C/c4[nH]cc(C(=O)N[C@@H](CC(N)=O)c5ccc(F)c(Cl)c5)c4-c4ccc(Cl)cc4F)ccc3F)cc2NC(=O)c2c[nH]c(=O)cc2C(F)(F)F)C[C@H](C)N1C
# Observed: thermal unfolding
# Method: differential scanning fluorimetry
# Concentration: 5.5 µM
# Reading: higher = more unfolded
# DCAF1: DDB1- and CUL4-associated factor 1 (DCAF1, Homo sapiens, UniProt Q9Y4B6)
# Chain of UniProt Q9Y4B6 (whole entry, looked up): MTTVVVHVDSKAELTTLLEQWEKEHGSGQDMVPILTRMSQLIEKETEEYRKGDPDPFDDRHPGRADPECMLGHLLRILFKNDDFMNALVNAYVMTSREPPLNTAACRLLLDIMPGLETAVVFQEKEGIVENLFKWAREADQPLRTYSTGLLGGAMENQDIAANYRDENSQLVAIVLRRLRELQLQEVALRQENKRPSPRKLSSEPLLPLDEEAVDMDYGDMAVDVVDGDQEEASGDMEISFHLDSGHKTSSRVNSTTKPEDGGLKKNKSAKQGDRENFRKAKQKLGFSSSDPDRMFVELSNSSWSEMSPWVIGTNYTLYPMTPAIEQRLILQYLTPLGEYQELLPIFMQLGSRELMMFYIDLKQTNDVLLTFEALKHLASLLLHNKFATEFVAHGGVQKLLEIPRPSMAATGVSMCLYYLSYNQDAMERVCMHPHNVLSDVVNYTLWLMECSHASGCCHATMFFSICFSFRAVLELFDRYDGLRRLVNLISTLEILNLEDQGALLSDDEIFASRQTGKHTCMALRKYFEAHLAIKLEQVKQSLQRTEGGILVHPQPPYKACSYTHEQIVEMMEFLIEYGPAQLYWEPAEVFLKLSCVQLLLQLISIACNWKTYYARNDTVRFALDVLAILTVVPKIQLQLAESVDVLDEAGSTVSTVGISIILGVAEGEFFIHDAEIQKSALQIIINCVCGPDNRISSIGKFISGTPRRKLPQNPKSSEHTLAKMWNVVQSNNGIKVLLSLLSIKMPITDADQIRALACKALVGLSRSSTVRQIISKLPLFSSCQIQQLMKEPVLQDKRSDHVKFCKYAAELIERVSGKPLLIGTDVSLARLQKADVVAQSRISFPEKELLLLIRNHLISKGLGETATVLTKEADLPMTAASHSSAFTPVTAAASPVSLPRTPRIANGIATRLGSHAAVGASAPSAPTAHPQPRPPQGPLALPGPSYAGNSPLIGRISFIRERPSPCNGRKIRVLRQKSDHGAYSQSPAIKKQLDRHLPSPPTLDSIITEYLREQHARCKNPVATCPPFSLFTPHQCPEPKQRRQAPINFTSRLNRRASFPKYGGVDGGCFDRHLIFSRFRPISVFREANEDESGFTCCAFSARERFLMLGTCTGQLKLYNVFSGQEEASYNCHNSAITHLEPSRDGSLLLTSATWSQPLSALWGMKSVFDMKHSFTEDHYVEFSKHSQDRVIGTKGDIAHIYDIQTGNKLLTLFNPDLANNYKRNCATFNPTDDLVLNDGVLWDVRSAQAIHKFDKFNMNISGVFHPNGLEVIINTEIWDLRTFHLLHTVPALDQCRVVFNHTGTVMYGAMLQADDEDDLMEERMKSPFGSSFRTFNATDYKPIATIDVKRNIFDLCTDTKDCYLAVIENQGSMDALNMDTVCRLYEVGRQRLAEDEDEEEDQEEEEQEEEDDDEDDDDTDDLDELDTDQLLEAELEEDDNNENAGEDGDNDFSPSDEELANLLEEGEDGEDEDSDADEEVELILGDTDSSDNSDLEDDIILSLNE
# WDR5: WD repeat-containing protein 5 (WDR5, Homo sapiens, UniProt P61964)
target,conditions,SYPRO Orange fluorescence
DCAF1,26.8 °C,8870 a.u.
WDR5,27.2 °C,13000 a.u.
WDR5,45.4 °C,15400 a.u.
WDR5,71.01 °C,17700 a.u.
DCAF1,58.81 °C,35000 a.u.
DCAF1,75.21 °C,49800 a.u.
DCAF1,32.4 °C,9740 a.u.
WDR5,90.61 °C,50400 a.u.
WDR5,50 °C,16400 a.u.
WDR5,52.2 °C,16800 a.u.
DCAF1,33.4 °C,9830 a.u.

# For quick reference, copied from above (set 2):
target,test,scale,remaining binding [%]
"PHKG2 (Homo sapiens, UniProt P15735)","binding, competition with immobilised ligand",,100
"MAPK4 (Homo sapiens, UniProt P31152)","binding, competition with immobilised ligand",,100
"EGFR (Homo sapiens, UniProt P00533, L858R/T790M)","kinase binding, KINOMEscan",reference: DMSO control,100
"Cyclin-dependent kinase 4, with cyclin D1 (CDK4, Homo sapiens, UniProt P11802)","kinase binding, KINOMEscan",reference: DMSO control,64
"ACVR2A (Homo sapiens, UniProt P27037)","kinase binding, KINOMEscan",reference: DMSO control,100
